Results pooled from the literature.
Compare with care: the assays were run in different laboratories. Numbers after ± are the reported error.

| SMILES | test | system | setting | tissue uptake [%ID/g] |
| --- | --- | --- | --- | --- |
| CC(C)[C@H](NC(=O)[C@@H]1CCCN1C(=O)[C@H](CCCNC(=N)N)NC(=O)[C@H](CS)NC(=O)[C@H](Cc1c[nH]c2ccccc12)NC(=O)[C@H](CCCNC(=N)N)NC(=O)[C@@H](Cc1ccccc1)NC(=O)[C@H](Cc1c[nH]cn1)NC(=O)[C@H](CCC(=O)O)NC(=O)[C@H](CS)NC(=O)[C@H](CS)NC(=O)[C@@H]1CC(=O)N[C@@H](CCCNC(=N)N)C(=O)NCC(=O)N[C@@H](CC(=O)O)C(=O)N[C@H](Cc2ccc(O)cc2)C(=O)N1)C(N)=O [technetium-99m labelled] | – | C57 mouse, female, B16/F1 melanoma, stomach | intravenous, 0.037 MBq, 24 h | 0.69 ± 0.25 |
| CCCC[C@@H]1NC(=O)[C@@H](NC(=O)[C@H](CCC(=O)O)NC(=O)CNC(=O)CN2CCN(CC(=O)O)CCN(CC(=O)O)CCN(CC(=O)O)CC2)CCCCNC(=O)C[C@@H](C(N)=O)NC(=O)[C@H](C(C)C)NC(=O)[C@@H]2CCCN2C(=O)[C@H](CCCNC(=N)N)NC(=O)CNC(=O)[C@H](Cc2c[nH]c3ccccc23)NC(=O)[C@H](CCCNC(=N)N)NC(=O)[C@@H](Cc2ccccc2)NC(=O)[C@H](Cc2c[nH]cn2)NC(=O)[C@H](CCC(=O)O)NC1=O [gallium-67 labelled] | – | normal C57 mice, blood | intravenous, 0.037 MBq/mouse, 2 h | 0.13 ± 0.07 |
| CCN(CC)c1ccc2c(-c3ccccc3C(=O)OCCOCCOCC[18F])c3ccc(=[N+](CC)CC)cc-3oc2c1 | – | rat, blood | 60 min | 0.19 ± 0.01 |
| CC(C)[C@H](NC(=O)[C@@H]1CCCN1C(=O)[C@H](CCCNC(=N)N)NC(=O)[C@H](CS)NC(=O)[C@H](Cc1c[nH]c2ccccc12)NC(=O)[C@H](CCCNC(=N)N)NC(=O)[C@@H](Cc1ccccc1)NC(=O)[C@H](Cc1c[nH]cn1)NC(=O)[C@H](CCC(=O)O)NC(=O)[C@H](CS)NC(=O)[C@H](CS)NC(=O)CNC(=O)[C@@H]1CC(=O)N[C@@H](CCCNC(=N)N)C(=O)NCC(=O)N[C@@H](CC(=O)O)C(=O)N[C@H](Cc2ccc(O)cc2)C(=O)N1)C(N)=O [technetium-99m labelled] | – | C57 mouse, female, B16/F1 melanoma, heart | intravenous, 0.037 MBq, 4 h | 0.51 ± 0.2 |
| CCCC[C@H](NC(=O)CNC(=O)CNC(=O)CN1CCN(CC(=O)O)CCN(CC(=O)O)CCN(CC(=O)O)CC1)C(=O)N[C@H]1CC(=O)NCCCC[C@@H](C(N)=O)NC(=O)[C@H](Cc2c[nH]c3ccccc23)NC(=O)[C@H](CCCNC(=N)N)NC(=O)[C@@H](Cc2ccccc2)NC(=O)[C@H](Cc2c[nH]cn2)NC1=O [gallium-67 labelled] | – | female C57 mice, B16/F1 melanoma, pancreas | intravenous, 0.037 MBq, 0.5 h | 0.83 ± 0.26 |
| CCCC[C@H](NC(=O)CNC(=O)CNC(=O)CN1CCN(CC(=O)O)CCN(CC(=O)O)CC1)C(=O)N[C@H]1CC(=O)NCCCC[C@@H](C(N)=O)NC(=O)[C@H](Cc2c[nH]c3ccccc23)NC(=O)[C@H](CCCNC(=N)N)NC(=O)[C@@H](Cc2ccccc2)NC(=O)[C@H](Cc2c[nH]cn2)NC1=O [copper-64 labelled] | – | female C57 mouse, B16/F1 melanoma, muscle | intravenous, 0.037 MBq, 24 h | 0.04 ± 0.03 |
| O=C(O)C1CN(Cc2ccc(-c3noc(-c4ccc(OCC[18F])c(C(F)(F)F)c4)n3)cc2)C1 | – | Sprague-Dawley rat, male, normal, thymus | iv, 120 min | 0.182 ± 0.013 |
| CCCC[C@H](NC(=O)CNC(=O)CNC(=O)CN1CCN(CC(=O)O)CCN(CC(=O)O)CCN(CC(=O)O)CC1)C(=O)N[C@H]1CC(=O)NCCCC[C@@H](C(N)=O)NC(=O)[C@H](Cc2c[nH]c3ccccc23)NC(=O)[C@H](CCCNC(=N)N)NC(=O)[C@@H](Cc2ccccc2)NC(=O)[C@H](Cc2c[nH]cn2)NC1=O [copper-64 labelled] | – | female C57 mouse, B16/F1 melanoma, tumor | intravenous, 0.037 MBq, 24 h | 5.96 ± 0.36 |
| O=C([O-])CN1CCN(CC(=O)[O-])CCN(CC(=O)[O-])CCN(CC(=O)[O-])CC1.[64Cu+2] | – | healthy athymic nude mice, kidney | intravenous, 24 h | 0.93 |
| O=C([O-])CN1CCN(CC(=O)[O-])CCN(CC(=O)NCCc2ccc3c(c2)C2C=CCC2C(c2cc4c(cc2Br)OCO4)N3)CCN(CC(=O)[O-])CC1.[111In+3] (centres unmarked) | – | mice with Hec50 tumour xenograft, pituitary | 0.5 h | 0.88 ± 0.06 |
| CN1C(=O)[C@@H](Cc2ccc(O)c(I)c2)NC(=O)CNC(=O)[C@H](Cc2ccc3ccccc3c2)NC(=O)[C@H](CCCNC(=N)N)NC(=O)[C@H]1CCCNC(=O)c1ccc(CNC(=O)CN2CCN(CC(=O)O)CCN(CC(=O)O)CCN(CC(=O)O)CC2)cc1 [lutetium-177 labelled] | measured: 177Lu radioactivity | female CB-17 SCID mice, Daudi xenograft, spleen | intravenous, 0.16 nmol per mouse, 48 h | 1.58 ± 0.33 |

Some of these lines once more:
| SMILES | test | system | setting | tissue uptake [%ID/g] |
| --- | --- | --- | --- | --- |
| CC(C)[C@H](NC(=O)[C@@H]1CCCN1C(=O)[C@H](CCCNC(=N)N)NC(=O)[C@H](CS)NC(=O)[C@H](Cc1c[nH]c2ccccc12)NC(=O)[C@H](CCCNC(=N)N)NC(=O)[C@@H](Cc1ccccc1)NC(=O)[C@H](Cc1c[nH]cn1)NC(=O)[C@H](CCC(=O)O)NC(=O)[C@H](CS)NC(=O)[C@H](CS)NC(=O)[C@@H]1CC(=O)N[C@@H](CCCNC(=N)N)C(=O)NCC(=O)N[C@@H](CC(=O)O)C(=O)N[C@H](Cc2ccc(O)cc2)C(=O)N1)C(N)=O [technetium-99m labelled] | – | C57 mouse, female, B16/F1 melanoma, stomach | intravenous, 0.037 MBq, 24 h | 0.69 ± 0.25 |
| CCCC[C@@H]1NC(=O)[C@@H](NC(=O)[C@H](CCC(=O)O)NC(=O)CNC(=O)CN2CCN(CC(=O)O)CCN(CC(=O)O)CCN(CC(=O)O)CC2)CCCCNC(=O)C[C@@H](C(N)=O)NC(=O)[C@H](C(C)C)NC(=O)[C@@H]2CCCN2C(=O)[C@H](CCCNC(=N)N)NC(=O)CNC(=O)[C@H](Cc2c[nH]c3ccccc23)NC(=O)[C@H](CCCNC(=N)N)NC(=O)[C@@H](Cc2ccccc2)NC(=O)[C@H](Cc2c[nH]cn2)NC(=O)[C@H](CCC(=O)O)NC1=O [gallium-67 labelled] | – | normal C57 mice, blood | intravenous, 0.037 MBq/mouse, 2 h | 0.13 ± 0.07 |
